Published values from different studies.
Each line is one published result; not all experiments were run side by side. ± marks the error that the study gave. ≈ marks a conversion by molar mass, not a printed value.

For COc1nc(CC=C(C)CC=CC(C)=CC(C)C(OC2OC(CO)C(O)C(O)C2O)C(C)=CCO)c(C)c(O)c1OC (centres unmarked), the concentration was 1.28 ± 0.44 ng/mL (C57BL/6 mice, acute kidney injury, kidney; 2 mg/kg, 150 min).
For CCCCCCCCCCCCC(=O)O.O=C1CCCC2C3CCCN4CCCC(CN12)C34 (centres unmarked), “standard Gibbs energy of micellization” read -7.44 kcal/mol (electrical conductivity; water; 298.15 K, critical micelle concentration).
The solubility of O=c1c2ccccc2[se]n1CCCn1[se]c2ccccc2c1=O is reported as 300 ± 17 µg/mL (≈ 688 µM) (20% Soluplus in water; 24 h, 25 °C, 200 mg/mL).
For CN(C)c1cc(CN2CCCCC2)c(O)c2c1C[C@H]1C[C@H]3[C@H](N(C)C)C(O)=C(C(N)=O)C(=O)[C@@]3(O)C(O)=C1C2=O, tolerability read “not toxic” (cynomolgus monkey; intravenous infusion, dose not given).
For CC[C@H](C)C(=O)N1CCC(NC(=O)Nc2ccc(OC(F)(F)F)c(F)c2)CC1, “subjects with palpitations TEAE” read 0% (healthy volunteers; oral, 24 mg single dose).
For CC(C)C[C@@H](NC(=O)[C@@H](C)NC(=O)[C@@H](CCCCN)NC(=O)[C@H](N)CCCCN)C(=O)N[C@H](C)C(=O)N[C@H](CCCCN)C(=O)N[C@H](C)C(=O)N[C@H](CC(C)C)C(=O)N[C@H](CCCCN)C(=O)N[C@H](Cc1c[nH]cn1)C(=O)N[C@H](Cc1c[nH]c2ccccc12)C(=O)N[C@H](CC(C)C)C(=O)N1CCC[C@@H]1C(=O)N[C@H](C)C(=O)N[C@H](CC(C)C)C(=O)N[C@H](Cc1c[nH]cn1)C(=O)N[C@H](CCCCN)C(=O)N[C@H](CC(C)C)C(=O)N[C@H](C)C(=O)N[C@H](CCCCN)C(=O)N[C@H](C)C(=O)N[C@H](CC(C)C)C(=O)N[C@H](C)C(=O)N[C@H](CCCCN)C(=O)N[C@H](CCCCN)C(N)=O, the HC50 was 8.61 ± 0.35 µM (haemolysis; human erythrocytes; 30 min, pH 7.4, 37 °C).
For O=C([O-])C[N+]12CC(=O)[O][Re-2]1[O]P(=O)([O-])C2.[C-]#[O+].[C-]#[O+].[C-]#[O+] (centres unmarked), “isomer fraction at equilibrium” read 59% (HPLC; aqueous solution; 1 d, pH 12, room temperature).
CC[C@H](C)CCCCC(=O)N[C@@H](CCN)C(=O)N[C@H](C(=O)N[C@@H](CCN)C(=O)N[C@H]1CCNC(=O)[C@H]([C@@H](C)O)NC(=O)[C@H](CCN)NC(=O)[C@H](CCN)NC(=O)[C@H](CC(C)C)NC(=O)[C@@H](Cc2ccccc2)NC(=O)[C@H](CCN)NC1=O)[C@@H](C)O: “urinary albumin excretion” 1150 µg/24 h (ELISA; male CD-1 mouse, urine; subcutaneous, 25 mg/kg, 4 doses every 8 h, 24 h urine collection, nephrotoxicity).
For CC(C)[C@H](NC(=O)CNC(=O)[C@H](CCC(N)=O)NC(=O)[C@H](C)N)C(=O)O, “subjects with adverse events” read 0% (Definitely drug-related; human; 10 mg/kg, 3 days, thrice daily dosing).
With CC[C@H](C)[C@H](NC(=O)[C@H](CCCCN)NC(=O)[C@H](Cc1ccccc1)NC(=O)[C@H]1CCC[C@@H]1NC(=O)CN)C(=O)N[C@@H](C)CC(=O)N[C@@H](CCCCN)C(=O)N[C@@H](CCCCN)C(=O)N[C@H]1CCC[C@@H]1C(=O)N[C@H](C(=O)N[C@@H](CCCCN)C(=O)N[C@@H](CO)C(=O)N[C@H](CC(N)=O)Cc1ccccc1)C(C)C the retention time was 15.38 ± 0.08 min (RP-HPLC C18; hydrophobicity).
For NC(=O)[C@H](Cc1ccccc1)N[11C](=O)OCc1ccccc1, the SUV max was 2 (binding, dynamic PET; Wistar rat, male, brain; intravenous, 3 min, added: self-blocking, 3 µmol/kg unlabelled analogue, 3 min before).
For O=C(CN1CCN(c2cc3c(cc2F)c(=O)c(C(=O)O)cn3C2CC2)CC1)Nc1ccc(Cl)cc1, the C0 was 11400 ng/mL (mouse, plasma; intravenous, 1.25 mg/kg).
With [2H]C([2H])([2H])C([2H])([2H])C([2H])([2H])OC(C(=O)OC1CCNCC1)(c1ccccc1)c1ccccc1 the half-life was 74.2 h (male human, plasma; oral, 8 mg, multiple doses).
CSCC[C@@H]1NC(=O)[C@@H]2CSSC[C@H](NC(=O)[C@H](CO)NC(=O)[C@H](C)N)C(=O)N[C@@H](CCCNC(=N)N)C(=O)N[C@@H]([C@@H](C)O)C(=O)N3CCC[C@H]3C(=O)N[C@@H](CCCCN)C(=O)N[C@@H](CC(=O)O)C(=O)N[C@H]3CSSC[C@H](NC(=O)[C@H](CCCCN)NC(=O)[C@H](CCCNC(=N)N)NC(=O)[C@H](CC(N)=O)NC1=O)C(=O)N[C@@H](CCCCN)C(=O)N[C@H]1CSSC[C@H](NC(=O)[C@@H]4CCCN4C(=O)[C@H](CC(=O)O)NC(=O)[C@H](C)NC3=O)C(=O)N[C@@H](C)C(=O)N[C@@H](CCCCN)C(=O)N[C@@H](CCC(=O)O)C(=O)N[C@@H]([C@@H](C)O)C(=O)NCC(=O)N[C@@H](CSSC[C@@H](C(N)=O)NC(=O)[C@H](CCCNC(=N)N)NC(=O)[C@H](CC(N)=O)NC1=O)C(=O)N1CCC[C@H]1C(=O)N[C@@H](Cc1ccc(O)cc1)C(=O)NCC(=O)N[C@@H](CCCCN)C(=O)N2 gave a gamma-glutamyl transferase of 1.2 U/L (DA rat, pristane-induced arthritis, serum; subcutaneous, single 0.1 mg/kg at onset, end of 21-day trial).
With CC(C)C[C@H](NC(=O)[C@H](CCCCN)NC(=O)[C@H](CCC(=O)O)NC(=O)[C@H](C)NC(=O)[C@@H](NC(=O)[C@H](CCCCN)NC(=O)[C@H](CC(=O)O)NC(=O)[C@H](Cc1ccc(O)cc1)NC(=O)[C@H](Cc1ccccc1)NC(=O)[C@H](C)NC(=O)[C@H](CCCCN)NC(=O)[C@H](CC(C)C)NC(=O)[C@H](Cc1c[nH]c2ccccc12)NC(=O)[C@@H](N)CC(=O)O)C(C)C)C(=O)N[C@@H](CCCCN)C(=O)N[C@@H](CCC(=O)O)C(=O)N[C@@H](C)C(=O)N[C@@H](Cc1ccccc1)C(=O)N1CCC[C@H]1C(=O)N[C@@H](CC(=O)O)C(=O)N[C@@H](Cc1c[nH]c2ccccc12)C(=O)N[C@@H](C)C(=O)N[C@@H](CCCCN)C(=O)N[C@@H](C)C(=O)N[C@@H](C)C(=O)N[C@@H](Cc1ccc(O)cc1)C(=O)N[C@@H](CC(=O)O)C(=O)N[C@@H](CCCCN)C(=O)N[C@@H](C)C(=O)N[C@@H](C)C(=O)N[C@@H](CCC(=O)O)C(=O)N[C@@H](CCCCN)C(=O)N[C@@H](C)C(=O)N[C@@H](CCCCN)C(=O)N[C@@H](CCC(=O)O)C(=O)N[C@@H](C)C(=O)N[C@@H](C)C(=O)O the Cmax was 164000 ng/mL (cynomolgus monkey male, plasma; intravenous infusion, 8 mg/kg every other day, day 27).
CCc1c2c(nc3ccc(OC4OC(C(=O)O)C(O)C(O)C4O)cc13)-c1cc3c(c(=O)n1C2)COC(=O)C3(O)CC (centres unmarked) has a Tmax of 5.35 h (human patients, plasma; intravenous, 177 mg/m^2 of parent drug).
CN[C@](C)(C[18F])C(=O)O has a tumour uptake of 4.9 ± 1 %ID/g (SCID mouse U87 xenograft; 15 min post injection).
N=C(N)NCc1ccc(C(=O)NCCCC[C@H](NC(=O)N[C@@H](CCC(=O)O)C(=O)O)C(=O)O)cc1[211At] gave a tissue uptake of 0.89 ± 0.18 %ID/g (SCID mouse, PC-3 xenografts, heart; 2 h).
The AUC(0-t) of O=c1cc(-c2ccccc2)oc2c(Br)c(O)c(O)c(O)c12 is reported as 50900 ng·h/mL (C57BL/6 mouse, plasma; oral, 250 mg/kg, single dose).
With CN(C)C(CNC(=O)Nc1cc(C(F)(F)F)ccc1N1CCOCC1)c1ccncc1 (centres unmarked) the serum glucose was 254 mg/dL (mouse, serum; intraperitoneal, 120 mg/kg single dose).
The brain concentration of CC(C)C[C@H](NC(=O)[C@H](Cc1ccccc1)NC(=O)CNC(=O)C/C=C(\F)[C@@H](N)Cc1ccc(O)cc1)C(=O)O is reported as 5 to 8 ng/mL (BALB/c mice, brain; oral, 400 mg/kg, 5 min).
CC(C)[C@H]1NC(=O)C[C@H]2/C=C/CCSSC[C@@H](NC1=O)C(=O)N[C@H](Cc1cccc3ccccc13)C(=O)NCC(=O)O2 gave a C0 of 46.8 ng/mL (nude mouse, blood; intravenous, 4 mg/kg).
For CC(=CCC(O)C(C)=Cc1csc(C)n1)CC=CC(C)C(O)C(C)C(=O)C(C)(C)C(O)CC(=O)O (centres unmarked), the Tmax was 3.38 ± 0.48 h (human, plasma; intravenous infusion, 36 mg/m2 KOS-1584, 3 h infusion, cycle 1).
The tissue concentration of C/C=C/C=C/C/C=C/CCCCCCCc1cccc(O)c1O is reported as 48200 ± 4010 ng/g (female Kunming mice, tumour-bearing, tumor; intravenous, 10 mg/kg, 0.5 h).
C[S]1CC[S]2CC[P](CO)(CO)[99Tc+]12.[C-]#[O+].[C-]#[O+].[C-]#[O+] — result for “uptake in large intestine”: 16.7 %ID (CF-1 mouse; intravenous, 1 h).
CCCC[C@H](NC(=O)CN1CCC(NC(=O)CN2CCC(NC(=O)CN3CCN(CC(=O)O)CCN(CC(=O)O)CCN(CC(=O)O)CC3)CC2)CC1)C(=O)N[C@H]1CC(=O)NCCCC[C@@H](C(N)=O)NC(=O)[C@H](Cc2c[nH]c3ccccc23)NC(=O)[C@H](CCCNC(=N)N)NC(=O)[C@@H](Cc2ccccc2)NC(=O)[C@H](Cc2c[nH]cn2)NC1=O [gallium-68 labelled] — result for “tumour to muscle ratio”: 53.3 ± 13 (biodistribution; C57BL/6J mouse male tumour-bearing; 1 h post injection, unblocked; reference: tumour over muscle).
COC(=O)C[C@](O)(CCCC(C)(C)OC(C)=O)C(=O)O[C@@H]1C(OC)=C[C@]23CCCN2CCc2cc4c(cc2[C@H]13)OCO4 — result for tissue concentration: “not detected” (CD1 mouse, lung; subcutaneous, 1 mg/kg, 24 h, below quantification limit 1.00 ng/mL).
For Cc1cccc(-c2cccc(C)n2)n1.[Cl-].[Cl-].[Ru+2].c1ccc(-c2ccccn2)nc1.c1ccc(-c2ccccn2)nc1, “total release from nanoassemblies” read 95.3% (phosphate buffer with NaCl; concentration not given, pH 6.0, 37 °C, dark, dialysis).
COc1ccc(C)cc1NC(=O)OC1CC2CCCC(C1)N2Cc1ccc(CC[18F])cc1 (centres unmarked) gave a tracer uptake of 0.59 %ID/g (mouse, blood; 2 h, tumour-bearing).
